Published values of several laboratories.
Each numbered part is a random draw from the data of one study; scales do not carry over between parts.

Set 1 — technique: RNA Bind-n-Seq; form: RNA; medium: in vitro; tested at: 1 µM; notes: whole 134-nt RNA, ends assumed; together with: 150 mM KCl; baseline: input library; reading: higher = stronger binding; measurement: log2 enrichment
Target: Ras GTPase-activating protein-binding protein 1, C-terminal RGG region (G3BP1, Homo sapiens, UniProt Q13283)
UniProt Q13283, sequence (whole entry, looked up): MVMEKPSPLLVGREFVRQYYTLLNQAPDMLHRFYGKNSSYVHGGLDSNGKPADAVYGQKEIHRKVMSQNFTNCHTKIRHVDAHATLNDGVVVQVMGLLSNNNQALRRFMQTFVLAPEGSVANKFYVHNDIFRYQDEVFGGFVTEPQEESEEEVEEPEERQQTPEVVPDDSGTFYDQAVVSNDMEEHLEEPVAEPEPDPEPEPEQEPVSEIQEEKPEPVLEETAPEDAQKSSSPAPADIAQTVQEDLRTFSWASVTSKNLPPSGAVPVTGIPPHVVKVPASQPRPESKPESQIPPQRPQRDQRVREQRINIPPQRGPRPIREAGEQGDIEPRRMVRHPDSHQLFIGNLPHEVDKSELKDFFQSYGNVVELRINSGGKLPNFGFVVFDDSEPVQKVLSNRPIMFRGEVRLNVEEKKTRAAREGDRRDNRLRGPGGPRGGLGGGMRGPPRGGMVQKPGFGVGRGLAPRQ
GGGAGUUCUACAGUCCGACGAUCCUCAAGUCCUGUGCUACACAUCGUAUGUACCGAAUCGGGGUUGGUUGGUUGGGAAAGUAUUAUGUUACGCCGUUCGGAUCUGCACUUCCAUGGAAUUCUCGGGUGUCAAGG: -0.857
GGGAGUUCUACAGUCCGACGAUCUGGGAAGUGGAUUUUGUUUAUUUUUUUAGCUCAUUUCCAGGGGUGGGAAUUUUUUUUUAAUAUGUGUCAUGAAUAAAGUUGUUUUUGAAAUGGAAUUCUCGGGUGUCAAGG: 3.25
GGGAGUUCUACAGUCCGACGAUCCCUGUGCUACACAUCGUAUGUACCGAAUCGGAAAAAAAGGGGAAAAAAAGGAAAAAAAGGAAAGUAUUAUGUUACGCCGUUCGGAUCUGCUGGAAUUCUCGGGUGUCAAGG: -1.69
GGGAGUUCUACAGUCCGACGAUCUGGGAGGUGGAUUUUGUUUAUGUUUUUAGCUCAUUUCCAGGGGUGGGAAUUUUUUUUUAAUAUGUGUCAUGAAUAAAGUUGUUUUUGAAAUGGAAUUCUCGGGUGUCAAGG: 3.04
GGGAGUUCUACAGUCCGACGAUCAAGUCCUGUGCUACACAUCGUAUGUACCGAAUCGGGAAAGGGUUUUUUUGGGUGGGAAAGUAUUAUGUUACGCCGUUCGGAUCUGCACUUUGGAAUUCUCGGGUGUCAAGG: 0.605

Set 2 — technique: RNA Bind-n-Seq; form: RNA; medium: in vitro; tested at: not given; baseline: input RNA pool; reading: higher = stronger binding; measurement: bound/input enrichment
Target: RING finger protein unkempt homolog, zinc fingers 1-6, GST-SBP tag (UNK, Homo sapiens, UniProt Q9C0B0, residues 30-357)
Notes: RNA with constant flanks, human-mouse chimeric sites, ends assumed
Construct (chain): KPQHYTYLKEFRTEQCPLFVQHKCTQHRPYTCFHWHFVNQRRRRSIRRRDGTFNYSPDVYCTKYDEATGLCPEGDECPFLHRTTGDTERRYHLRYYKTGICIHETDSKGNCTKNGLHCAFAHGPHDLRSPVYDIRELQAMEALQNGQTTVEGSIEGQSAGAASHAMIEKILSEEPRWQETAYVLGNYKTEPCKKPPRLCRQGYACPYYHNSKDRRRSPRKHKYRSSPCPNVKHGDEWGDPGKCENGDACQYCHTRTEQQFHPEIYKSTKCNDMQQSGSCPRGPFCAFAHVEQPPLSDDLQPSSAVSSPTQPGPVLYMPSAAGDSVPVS
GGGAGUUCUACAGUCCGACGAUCCAACCUCAGAGCCCAGACUUCCUGGAUAUUACCAACCCUAAAGCGGUAUUAGAAAAUGCAUUGAGAAACUUUGCCUGUCUGACGACUGGAGAUGUGAUUGCUAUCAACUACAAUGAGAAGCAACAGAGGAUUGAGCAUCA: 0.359 ratio
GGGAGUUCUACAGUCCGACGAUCCGGAGCCCCUCCCUCUCACAGGCCCAAGAUAUAACCCACCAGUGCCUUUUGUCUUCCUGUCAGCUCUGUCAAUCACGCCUGUCCUCUCACGCCCACACUCCCCAGCCAAAGUGGGGAGGGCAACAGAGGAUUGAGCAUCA: 0.379 ratio
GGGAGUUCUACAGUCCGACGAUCACAGUUAUACACUGUUGUUUCAUUUUCAUAUAUUCUUGUAGUGUCUGCUUGCCUGUGACUUCUGGUAAAAUAAGACUAGCCUUUGAAAAUAUUUUAGCAUGGUAUUUAACAUUUUCUAAACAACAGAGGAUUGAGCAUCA: 7.76 ratio
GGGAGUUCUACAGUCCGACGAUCUGACAAGGGCACUGCAGAGCCAUGCCUUUCCUUGACAUACAGAAAAAGUUCGGCCUUAGCCUGGACCGGCACUUUAUAAUCCAGAGUGCAGAACAGCCCUAUAAGAACGCCGCUCGGUGCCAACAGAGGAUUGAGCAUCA: 0.0743 ratio
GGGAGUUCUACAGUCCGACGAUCGUGUCCUUUCAACUUAAUAAAUCACUGAGGCAUCUCUACUGUUCUGUGAGCAUCAGGACUGUAGCGCUGUGUCACCACAUGAGAGUUCAGAAGCAGCCUUUCUGUGGAGAGUGAGAAUGACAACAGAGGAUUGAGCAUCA: 0.179 ratio
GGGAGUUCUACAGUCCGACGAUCCUGAGGAUACCACUGAAGAGACCUUAAAAGAAUCAUUUGAGGGCUCUGUUCGUGCAAGAAUAGUCACUGAUCGGGAAACUGGUUCUUUCCAAAGGGUUGGUUUUGUAGACUUUAAUAGUGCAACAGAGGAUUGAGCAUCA: 0.798 ratio
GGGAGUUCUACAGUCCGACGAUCCUUAAUGUUAAUAUUUUUAAAGGAAGCUAAAACCAUGGUCUGCUUUUGGUACAACACGCAUUAAUAAAAGGUUAAGUUUUGUUUUCCACUGAAGUACUAUUUAACAUCUCAGAAAAAAACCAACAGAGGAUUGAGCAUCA: 0.247 ratio
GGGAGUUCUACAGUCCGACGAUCAGAAAGCAAAACUUGGAAAGAUUUAAGAAAGGAGACGUAAGAUUCUUGAUUUGCACAGAUGUAGCUGCUAGAGGGAUUGAUAUCCAUGGCGUUCCUUAUGUGAUCAAUGUCACUCUGCCUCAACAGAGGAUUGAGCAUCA: 0.154 ratio

Set 3 — technique: protein-binding microarray; form: double-stranded DNA, one strand shown; medium: in vitro; tested at: 2200 nM top; notes: 60-bp whole probe; together with: salmon DNA 0.4 mg/ml; baseline: random background probes; reading: higher = stronger binding; measurement: fitted relative affinity; constant ends, left off below: GCCTAGCAC … GTCTTGATTCGCTTGACGCTGCTG
Target: Interferon regulatory factor 7, full length, phosphomimetic (IRF7, Homo sapiens, UniProt Q92985, residues 1-503, S471D/S472D/S475D/S476D/S477D/S483D/S484D/S487D)
Residues (chain): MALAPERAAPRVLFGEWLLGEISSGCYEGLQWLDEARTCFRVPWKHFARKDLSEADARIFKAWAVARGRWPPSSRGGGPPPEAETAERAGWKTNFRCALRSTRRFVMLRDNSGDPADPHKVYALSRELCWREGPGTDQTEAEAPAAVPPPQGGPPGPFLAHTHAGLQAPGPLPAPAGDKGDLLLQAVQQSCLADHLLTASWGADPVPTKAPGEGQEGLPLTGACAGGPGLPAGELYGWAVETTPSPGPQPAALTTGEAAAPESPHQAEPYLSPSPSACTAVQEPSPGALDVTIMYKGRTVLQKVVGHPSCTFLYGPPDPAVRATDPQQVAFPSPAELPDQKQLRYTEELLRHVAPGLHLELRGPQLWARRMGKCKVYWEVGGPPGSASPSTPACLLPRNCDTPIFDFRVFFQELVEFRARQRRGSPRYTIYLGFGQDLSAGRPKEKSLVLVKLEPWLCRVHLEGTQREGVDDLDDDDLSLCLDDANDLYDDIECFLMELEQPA
GACGATATCAGACTGGAGGCGTGCTAG: -0.0209 z-score
TCAGTTTTCTCATTCGTACTGTGCTAG: 3.81 z-score
TCACCTAACATGCTTCGAACTGTGCTA: 1.03 z-score
TTAGGTTTCCGACTGGGTTAGTGCTAG: 1.07 z-score
GACGGTATCGCCACTGGGGACGTGCTA: -0.46 z-score
GACGATTTCAGTATCGAAACGTGCTAG: 1.08 z-score
GACGGACTGTACTTTCGGGACGTGCTA: 3.95 z-score
ATTTTTTTCTAATTGAAATCGTGCTAG: 1.73 z-score
GACGAACTGGGGTATCGAGAGGTGCTA: -0.263 z-score
GAAGACTTTGGTTTGTACACGTGCTAG: 0.287 z-score

Set 4 — technique: RNAcompete; form: RNA; medium: in vitro; tested at: 20 nM; notes: 7-mer, probes averaged, single round; baseline: mean of 7-mers; reading: higher = stronger binding; measurement: 7-mer Z-score
Target: PABPC1L2, full length, GST fusion (mouse, UniProt A0ABA7IW68)
Construct (chain): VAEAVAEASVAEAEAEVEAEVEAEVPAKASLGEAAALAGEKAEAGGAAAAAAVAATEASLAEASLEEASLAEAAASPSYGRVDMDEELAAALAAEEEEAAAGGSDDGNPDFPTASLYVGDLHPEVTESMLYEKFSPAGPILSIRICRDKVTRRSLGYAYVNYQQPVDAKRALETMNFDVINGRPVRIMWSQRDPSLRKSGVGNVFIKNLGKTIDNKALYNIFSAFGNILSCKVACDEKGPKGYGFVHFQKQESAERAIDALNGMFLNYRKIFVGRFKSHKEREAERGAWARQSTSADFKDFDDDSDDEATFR
UUUAUAC: -0.202
GUGCUAG: 0.0551
AUCCCAA: -0.151
UACCAGG: -0.184
GCUGUGU: -0.266
UAGGAUC: -0.0573
GAUGACA: -0.157
UUGCUCA: -0.235
AGCAAUA: 0.119
AAUUGAG: 0.376
GCGGUUU: -0.199
GCCUGAG: -0.0409
GACGAGG: 0.0424

For quick reference, copied from above (set 2):
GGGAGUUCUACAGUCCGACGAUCACAGUUAUACACUGUUGUUUCAUUUUCAUAUAUUCUUGUAGUGUCUGCUUGCCUGUGACUUCUGGUAAAAUAAGACUAGCCUUUGAAAAUAUUUUAGCAUGGUAUUUAACAUUUUCUAAACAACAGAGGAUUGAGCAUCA: 7.76 ratio
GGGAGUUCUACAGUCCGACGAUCUGACAAGGGCACUGCAGAGCCAUGCCUUUCCUUGACAUACAGAAAAAGUUCGGCCUUAGCCUGGACCGGCACUUUAUAAUCCAGAGUGCAGAACAGCCCUAUAAGAACGCCGCUCGGUGCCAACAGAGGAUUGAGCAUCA: 0.0743 ratio
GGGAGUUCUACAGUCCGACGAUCGUGUCCUUUCAACUUAAUAAAUCACUGAGGCAUCUCUACUGUUCUGUGAGCAUCAGGACUGUAGCGCUGUGUCACCACAUGAGAGUUCAGAAGCAGCCUUUCUGUGGAGAGUGAGAAUGACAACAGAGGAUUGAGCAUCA: 0.179 ratio
